Earlier results as cited in several papers.
Protocols differ between the studies behind these lines. ± gives the spread as reported.
UniProt P22736, sequence (whole entry, looked up): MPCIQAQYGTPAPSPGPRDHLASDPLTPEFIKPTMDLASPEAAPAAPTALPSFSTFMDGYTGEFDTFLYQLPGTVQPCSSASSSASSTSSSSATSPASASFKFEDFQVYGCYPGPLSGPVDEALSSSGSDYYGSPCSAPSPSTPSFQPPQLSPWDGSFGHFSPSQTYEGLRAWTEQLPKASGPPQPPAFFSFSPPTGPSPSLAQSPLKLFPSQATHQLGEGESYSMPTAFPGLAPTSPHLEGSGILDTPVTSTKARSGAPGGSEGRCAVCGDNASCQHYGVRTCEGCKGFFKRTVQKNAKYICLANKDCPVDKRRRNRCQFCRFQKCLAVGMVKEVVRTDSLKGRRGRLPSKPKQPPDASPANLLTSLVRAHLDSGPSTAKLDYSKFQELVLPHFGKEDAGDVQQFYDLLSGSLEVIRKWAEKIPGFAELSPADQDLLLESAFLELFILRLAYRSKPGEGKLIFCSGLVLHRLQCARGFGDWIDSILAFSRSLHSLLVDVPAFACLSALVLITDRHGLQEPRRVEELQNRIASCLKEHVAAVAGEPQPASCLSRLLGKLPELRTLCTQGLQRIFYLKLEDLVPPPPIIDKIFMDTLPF

Under “steady-state plasma concentration”, CCCCc1oc2ccc(NS(C)(=O)=O)cc2c1C(=O)c1ccc(OCCCN(CCCC)CCCC)cc1 is recorded as 0.15 to 0.3 µM (human, plasma; typical therapeutic dosing).
For CC1=C[C@@]2(C[C@H](C)[C@H]3CC=C(C)C(=O)[C@@H]3O2)OC1=O, the IC50 was 40.4 µM (PTP1B; inhibitor).
With O=C(CCSSc1ccccc1/C=N/NC(=O)c1ccccc1)OC[C@H]1OC(O)[C@H](O)[C@@H](O)[C@@H]1O (some centres unmarked) the IC50 was 26 ± 4 µM (MRC5 lung fibroblasts; MTT; 72 h).
With O=S(=O)(O)O the Km was 7 to 16 mM (hepatocytes; anion exchange, substrate).
Under “lowest concentration disrupting development”, CC1=C(/C=C/C(C)=C/C=C/C(C)=C/C(=O)O)C(C)(C)CCC1 is recorded as at least 4 nM (mouse embryonic stem cells).
COc1cccc(-c2ccc(NC(=O)C3=C(C(=O)O)CCC3)c(F)c2)c1 gave a maximal activation of 620% (Nuclear receptor subfamily 4 group A member 1 (NR4A1, Homo sapiens, UniProt P22736); agonist; reference: reference modulator).
With N#C/C=C/c1ccc2c(S(=O)(=O)n3nc(Nc4ccc(C#N)c(Cl)c4)nc3N)cccc2c1 the CC50 was 4.8 µM (TZM-bl; cytotoxicity).
CC[C@@H]1C(=O)OC[C@@H]1Cc1cncn1C.Cl — result for activity class: “inactive” (Toxoplasma gondii; parasite growth; concentration not given, published screen).

Some of these lines once more:
COc1cccc(-c2ccc(NC(=O)C3=C(C(=O)O)CCC3)c(F)c2)c1 gave a maximal activation of 620% (Nuclear receptor subfamily 4 group A member 1 (NR4A1, Homo sapiens, UniProt P22736); agonist; reference: reference modulator).
